{"data": "Results from different studies", "note": "A part holds a random share of what one study measured."}
{"data": "Block 1", "target": "5-hydroxytryptamine receptor 6 (HTR6, Homo sapiens, UniProt P50406)", "read-out": "binding", "method": "radioligand binding", "concentration": "10 µM", "UniProt P50406, sequence (whole entry, looked up)": "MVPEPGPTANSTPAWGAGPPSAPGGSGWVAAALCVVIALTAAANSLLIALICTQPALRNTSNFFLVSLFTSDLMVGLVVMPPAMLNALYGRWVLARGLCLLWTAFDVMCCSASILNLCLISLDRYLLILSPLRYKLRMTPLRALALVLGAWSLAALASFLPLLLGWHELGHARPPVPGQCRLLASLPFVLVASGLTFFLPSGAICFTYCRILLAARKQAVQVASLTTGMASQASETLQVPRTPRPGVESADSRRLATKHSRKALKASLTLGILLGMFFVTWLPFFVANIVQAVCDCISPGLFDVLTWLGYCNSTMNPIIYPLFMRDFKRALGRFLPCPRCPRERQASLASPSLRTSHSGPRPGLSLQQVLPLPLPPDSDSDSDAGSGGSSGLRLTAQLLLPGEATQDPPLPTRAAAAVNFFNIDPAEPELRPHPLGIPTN"}
{"SMILES": "C[C@@]1(Cc2ccc(C#N)cc2)C(=O)N(c2cc(Cl)cc(Cl)c2)c2ncc(C(=O)NC3(c4nc(C5CCC5)no4)CC3)n21", "inhibition [%]": 16.1}
{"SMILES": "O[C@]1(C(F)(F)F)CCCC[C@H]1Nc1ccc(F)cc1", "inhibition [%]": -26.4}
{"SMILES": "CNC(=O)c1ccc(Nc2ncc(C(F)(F)F)c(NCc3nccnc3N(C)S(C)(=O)=O)n2)cc1", "inhibition [%]": -8.99}
{"SMILES": "CC1=C(C#N)[C@@H](c2ccc3[nH]nc(C)c3c2)C(C#N)=C(c2ccc(Cl)cc2)N1", "inhibition [%]": 55.7}
{"SMILES": "COCCc1ccc(-c2c(C)nc3c(N4CCOCC4)ccnn23)cn1", "inhibition [%]": 18.5}
{"SMILES": "CNC(=O)Nc1ccc2c(c1)[C@]1(CC2)OC(=O)N(CC(=O)N(Cc2ccc(F)cc2)[C@@H](C)C(F)(F)F)C1=O", "inhibition [%]": 24.1}
{"SMILES": "Cc1nc(C2CCN(C(=O)c3ccc(OC(F)(F)F)cc3N)CC2)c2ncc(N3CCN(C)CC3)cc2n1", "inhibition [%]": -1.38}
{"SMILES": "Cc1c(NC(=O)c2cc(C(N)=O)nc3cc(F)ccc23)c(C(F)(F)F)nn1Cc1ccc(C(C)(C)C)cc1", "inhibition [%]": -0.431}
{"SMILES": "C[C@H](NC(=O)c1cnc2n1[C@](C)(Cc1ccc(C#N)cc1)C(=O)N2c1cc(Cl)c(F)c(Cl)c1)C(=O)NC1(c2ccccn2)CC1", "inhibition [%]": 6.67}
{"SMILES": "COCc1nc2cnc3cc(-c4c(C)noc4C)c(OC[C@H]4CCNC4)cc3c2n1[C@H](C)c1ccccc1", "inhibition [%]": -9.08}
{"SMILES": "CC(C)(O)c1cncc(-c2nc3ccc(F)cc3n2C2CC2)c1", "inhibition [%]": 15.6}
{"SMILES": "O=C(NC[C@@H]1[C@H]2CN(C(=O)OCc3cc(C(F)(F)F)cc(C(F)(F)F)c3)C[C@@H]12)c1ccc2[nH]nnc2c1", "inhibition [%]": 28.9}
{"SMILES": "O=C(O)c1cc(-c2ccc(C3CCNCC3)cc2)c2ccc(-c3ccc(C(F)(F)F)cc3)cc2c1", "inhibition [%]": 5.62}
{"SMILES": "CC(C)CC(=O)N1CCc2nc(-c3ccc(Br)cc3)nc(N(C)Cc3ccccc3)c2C1", "inhibition [%]": 0.81}
{"SMILES": "CN([C@@H]1CCc2c(CC(=O)O)c3cc(S(C)(=O)=O)ccc3n2C1)S(=O)(=O)c1ccc(F)cc1", "inhibition [%]": -5.39}
{"SMILES": "COc1cccc(CNC(=O)c2nc3scc(COCc4ccc(C(=O)O)cc4)c3c(=O)[nH]2)c1", "inhibition [%]": 15.8}
{"SMILES": "Cc1cc(-n2nc(Cc3cc(F)cc(C(F)(F)F)c3)nc2C)ccc1C(N)=O", "inhibition [%]": 6.25}
{"SMILES": "COc1cc(-c2cn(C3CCc4ccccc4N(CC(F)(F)F)C3=O)nn2)ccc1-n1ccc(C)n1 (centres unmarked)", "inhibition [%]": -1.39}
{"SMILES": "Cc1cc(C)c(-n2ccn3nc(-c4cccnc4)cc23)cc1NC(=O)c1cc(C#N)cc(S(F)(F)(F)(F)F)c1", "inhibition [%]": -17.2}
{"SMILES": "Cc1nc(N2CC[C@@H](O)C2)ncc1-c1cc(C(F)(F)F)cc2[nH]ncc12", "inhibition [%]": -10.3}
{"SMILES": "Cc1nc(Cc2cccc(C(F)(F)F)c2)sc1-c1ccc(C(N)=O)nc1", "inhibition [%]": 2.42}
{"data": "Block 2", "host": "mouse", "medium": "microsomes or S9", "concentration": "2 µM", "time": "0.5 h"}
{"SMILES": "O=C(NCCCN1CCN(c2ccccc2F)CC1)c1ccc2c(c1)N(Cc1ccccc1)C(=O)c1ccccc1[S+]2[O-] (centres unmarked)", "remaining compound [%]": 0.499}
{"SMILES": "Cn1cc(S(=O)(=O)Nc2nc3ccccc3nc2Nc2cc(Cl)ccc2O)cn1", "remaining compound [%]": 49.7}
{"SMILES": "COc1ccccc1Cn1c(C(=O)NCC2CC2)cc2sccc21", "remaining compound [%]": 0.0537}
{"SMILES": "CN(C)C1CCN(c2ncnn3c(Br)ccc23)CC1", "remaining compound [%]": 33.4}
{"SMILES": "COc1ccc(CCN2CCC(CNS(=O)(=O)c3ccc(-c4ccc(=O)[nH]n4)s3)CC2)cc1", "remaining compound [%]": 66.1}
{"SMILES": "CCOC(=O)c1[nH]c(C)c(CN(Cc2ccccc2)C(=O)CCC(=O)O)c1C", "remaining compound [%]": 2.3}
{"data": "Block 3", "organism": "Sarcocystis neurona", "read-out": "parasite growth", "concentration": "10 µM"}
{"SMILES": "Nc1ccn([C@@H]2CS[C@H](CO)O2)c(=O)n1", "inhibition": "-33.6%"}
{"SMILES": "CSc1nc2cc(Cl)c(Oc3cccc(Cl)c3Cl)cc2[nH]1", "inhibition": "10.3%"}
{"SMILES": "CCCC(CCC)C(=O)O", "inhibition": "-19.5%"}
{"SMILES": "COc1cc(C(=O)NC2CCCNC2)cc(OC)c1OC (centres unmarked)", "inhibition": "-31.2%"}
{"SMILES": "CN1CCN(c2c(F)cc3c(=O)c(C(=O)O)cn4c3c2SCC4)CC1.Cl", "inhibition": "-22.9%"}
{"SMILES": "COC(=O)C[C@](O)(CCCC(C)(C)O)C(=O)O[C@@H]1C(OC)=C[C@]23CCCN2CCc2cc4c(cc2[C@H]13)OCO4", "inhibition": "99.6%"}
{"SMILES": "Cc1ncc([N+](=O)[O-])n1CC(C)O (centres unmarked)", "inhibition": "-19.8%"}
{"SMILES": "CC(C)C(=O)Nc1ccc([N+](=O)[O-])c(C(F)(F)F)c1", "inhibition": "-28.6%"}
{"data": "Block 4", "cell line": "HaCaT", "concentration": "100 µM", "time": "36 h"}
{"Compound": "Nc1ncnc2c1ncn2[C@@H]1O[C@H](CO)[C@@H](O)[C@H]1O", "viability [%]": 93.9}
{"Compound": "Cc1cn[nH]c1", "viability [%]": 90.4}
{"Compound": "CN(C)CC(c1ccc(O)cc1)C1(O)CCCCC1 (centres unmarked)", "viability [%]": 84.3}
{"Compound": "N[C@@H](Cc1cc(I)c(Oc2cc(I)c(O)c(I)c2)c(I)c1)C(=O)O", "viability [%]": 43}
{"data": "Block 5", "cell line": "mouse MPNST tumor cells", "method": "high-content immunofluorescence imaging", "measured": "nuclear SOX9", "concentration": "10 µM", "time": "12 h", "setting": "mean of 2 replicates", "baseline": "DMSO control", "reading": "higher = more nuclear SOX9"}
{"SMILES": "O=S(=O)(NC1CCC(c2cc(F)ccc2F)(S(=O)(=O)c2ccc(Cl)cc2)CC1)C(F)(F)F (centres unmarked)", "nuclear SOX9 intensity": "108 % of DMSO"}
{"SMILES": "FC(F)(F)c1ccc(CNc2ccc(Cc3c[nH]c4ncccc34)cn2)cc1", "nuclear SOX9 intensity": "112 % of DMSO"}
{"SMILES": "N=C(NCCCCCCNC(=N)NC(=N)Nc1ccc(Cl)cc1)NC(=N)Nc1ccc(Cl)cc1", "nuclear SOX9 intensity": "145 % of DMSO"}
{"SMILES": "C[C@H](NC(=O)CNC(=O)c1cccc(Cl)c1)c1ccccc1", "nuclear SOX9 intensity": "98.1 % of DMSO"}
{"SMILES": "Cn1cnc2ncn(Cc3nc(CCc4ccc(Cl)cc4)no3)c(=O)c21", "nuclear SOX9 intensity": "102 % of DMSO"}
{"note": "Repeated from above (block 1):"}
{"SMILES": "Cc1c(NC(=O)c2cc(C(N)=O)nc3cc(F)ccc23)c(C(F)(F)F)nn1Cc1ccc(C(C)(C)C)cc1", "inhibition [%]": -0.431}
{"SMILES": "C[C@H](NC(=O)c1cnc2n1[C@](C)(Cc1ccc(C#N)cc1)C(=O)N2c1cc(Cl)c(F)c(Cl)c1)C(=O)NC1(c2ccccn2)CC1", "inhibition [%]": 6.67}
{"SMILES": "COCc1nc2cnc3cc(-c4c(C)noc4C)c(OC[C@H]4CCNC4)cc3c2n1[C@H](C)c1ccccc1", "inhibition [%]": -9.08}
